Assay results collected from several papers.
Parts stem from different laboratories: compare values within a part only. Several values in a cell are separate wells, animals, samples, runs or records.
Chain of UniProt Q9BYP7 (whole entry, looked up): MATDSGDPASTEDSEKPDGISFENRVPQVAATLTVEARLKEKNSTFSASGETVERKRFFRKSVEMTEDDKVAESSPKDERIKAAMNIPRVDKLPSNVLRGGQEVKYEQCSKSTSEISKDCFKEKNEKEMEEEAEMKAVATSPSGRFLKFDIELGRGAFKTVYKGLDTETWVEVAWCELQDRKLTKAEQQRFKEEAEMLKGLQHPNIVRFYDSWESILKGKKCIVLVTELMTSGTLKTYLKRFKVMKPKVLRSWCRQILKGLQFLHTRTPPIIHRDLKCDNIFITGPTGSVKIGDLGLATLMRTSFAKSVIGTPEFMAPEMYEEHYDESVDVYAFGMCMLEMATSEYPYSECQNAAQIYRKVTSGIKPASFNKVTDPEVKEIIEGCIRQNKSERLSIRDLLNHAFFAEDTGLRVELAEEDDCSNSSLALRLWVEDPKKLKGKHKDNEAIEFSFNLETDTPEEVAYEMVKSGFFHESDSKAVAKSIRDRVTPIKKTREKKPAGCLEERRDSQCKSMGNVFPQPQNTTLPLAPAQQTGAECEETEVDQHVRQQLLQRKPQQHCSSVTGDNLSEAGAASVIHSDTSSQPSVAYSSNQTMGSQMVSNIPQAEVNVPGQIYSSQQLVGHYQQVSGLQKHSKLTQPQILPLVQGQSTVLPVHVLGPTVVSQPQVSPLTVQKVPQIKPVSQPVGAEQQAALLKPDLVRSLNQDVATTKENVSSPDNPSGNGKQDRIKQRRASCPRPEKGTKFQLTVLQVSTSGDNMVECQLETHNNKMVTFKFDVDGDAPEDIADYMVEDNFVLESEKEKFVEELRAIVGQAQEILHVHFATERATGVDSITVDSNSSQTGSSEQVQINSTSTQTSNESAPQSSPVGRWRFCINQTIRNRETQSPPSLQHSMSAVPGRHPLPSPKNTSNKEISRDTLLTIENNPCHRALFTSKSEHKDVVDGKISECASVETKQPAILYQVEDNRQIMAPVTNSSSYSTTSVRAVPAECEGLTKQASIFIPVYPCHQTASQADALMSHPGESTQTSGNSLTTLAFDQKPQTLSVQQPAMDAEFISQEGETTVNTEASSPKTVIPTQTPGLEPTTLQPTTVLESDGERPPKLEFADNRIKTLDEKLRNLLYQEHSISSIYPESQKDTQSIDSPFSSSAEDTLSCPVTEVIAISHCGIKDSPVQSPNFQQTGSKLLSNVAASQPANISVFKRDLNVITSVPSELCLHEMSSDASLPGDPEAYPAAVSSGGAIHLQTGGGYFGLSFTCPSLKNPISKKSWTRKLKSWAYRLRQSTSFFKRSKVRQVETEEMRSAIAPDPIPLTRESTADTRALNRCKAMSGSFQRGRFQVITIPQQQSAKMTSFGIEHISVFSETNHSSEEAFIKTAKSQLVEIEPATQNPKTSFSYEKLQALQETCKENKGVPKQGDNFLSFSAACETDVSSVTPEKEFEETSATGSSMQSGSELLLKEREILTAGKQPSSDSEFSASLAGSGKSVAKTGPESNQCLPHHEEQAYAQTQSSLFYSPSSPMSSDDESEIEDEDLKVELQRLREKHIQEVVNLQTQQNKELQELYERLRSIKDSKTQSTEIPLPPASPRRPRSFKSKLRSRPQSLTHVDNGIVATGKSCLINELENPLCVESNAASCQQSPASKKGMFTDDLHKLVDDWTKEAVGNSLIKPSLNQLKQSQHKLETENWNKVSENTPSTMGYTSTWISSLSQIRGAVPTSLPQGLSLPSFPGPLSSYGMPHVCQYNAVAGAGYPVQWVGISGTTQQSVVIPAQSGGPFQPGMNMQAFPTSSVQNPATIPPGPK
Chain of UniProt Q14004 (whole entry, looked up): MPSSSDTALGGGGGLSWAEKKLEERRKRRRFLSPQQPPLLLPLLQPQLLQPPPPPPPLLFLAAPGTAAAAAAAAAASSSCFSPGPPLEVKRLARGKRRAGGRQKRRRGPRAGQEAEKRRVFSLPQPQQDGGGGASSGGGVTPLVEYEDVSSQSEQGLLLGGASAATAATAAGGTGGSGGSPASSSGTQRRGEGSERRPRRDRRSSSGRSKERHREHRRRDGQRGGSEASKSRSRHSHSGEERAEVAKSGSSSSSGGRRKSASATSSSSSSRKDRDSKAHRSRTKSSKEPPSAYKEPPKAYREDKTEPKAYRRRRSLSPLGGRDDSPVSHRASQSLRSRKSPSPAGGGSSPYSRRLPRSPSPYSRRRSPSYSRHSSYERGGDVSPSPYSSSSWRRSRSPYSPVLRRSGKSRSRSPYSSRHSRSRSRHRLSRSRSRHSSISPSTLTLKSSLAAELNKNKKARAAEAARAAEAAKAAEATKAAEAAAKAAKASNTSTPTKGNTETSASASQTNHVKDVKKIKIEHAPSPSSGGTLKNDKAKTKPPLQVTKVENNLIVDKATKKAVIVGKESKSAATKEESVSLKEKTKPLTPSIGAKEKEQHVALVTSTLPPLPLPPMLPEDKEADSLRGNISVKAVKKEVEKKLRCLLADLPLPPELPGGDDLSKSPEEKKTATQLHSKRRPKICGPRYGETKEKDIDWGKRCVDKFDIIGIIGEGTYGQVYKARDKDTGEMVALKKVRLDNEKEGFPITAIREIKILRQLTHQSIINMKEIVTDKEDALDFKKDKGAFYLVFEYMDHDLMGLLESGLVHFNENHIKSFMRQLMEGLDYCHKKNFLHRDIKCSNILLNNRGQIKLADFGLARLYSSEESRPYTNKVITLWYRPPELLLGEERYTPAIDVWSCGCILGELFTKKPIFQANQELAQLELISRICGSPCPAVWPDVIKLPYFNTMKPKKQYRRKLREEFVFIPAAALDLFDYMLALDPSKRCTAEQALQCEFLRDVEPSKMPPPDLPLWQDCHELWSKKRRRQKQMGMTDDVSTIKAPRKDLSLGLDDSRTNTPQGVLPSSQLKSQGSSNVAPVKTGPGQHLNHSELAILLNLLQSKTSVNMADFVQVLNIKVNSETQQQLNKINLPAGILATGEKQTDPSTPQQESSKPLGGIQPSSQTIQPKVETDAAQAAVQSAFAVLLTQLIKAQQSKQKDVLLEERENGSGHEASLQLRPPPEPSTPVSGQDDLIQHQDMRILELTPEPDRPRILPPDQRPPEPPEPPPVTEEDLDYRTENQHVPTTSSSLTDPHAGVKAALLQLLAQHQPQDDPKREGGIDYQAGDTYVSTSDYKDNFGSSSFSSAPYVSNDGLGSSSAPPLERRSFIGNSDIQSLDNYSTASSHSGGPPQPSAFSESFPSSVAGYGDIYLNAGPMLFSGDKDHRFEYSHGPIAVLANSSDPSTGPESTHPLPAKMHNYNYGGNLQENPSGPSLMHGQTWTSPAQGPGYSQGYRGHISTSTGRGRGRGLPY
Chain of UniProt Q9UQB9 (whole entry, looked up): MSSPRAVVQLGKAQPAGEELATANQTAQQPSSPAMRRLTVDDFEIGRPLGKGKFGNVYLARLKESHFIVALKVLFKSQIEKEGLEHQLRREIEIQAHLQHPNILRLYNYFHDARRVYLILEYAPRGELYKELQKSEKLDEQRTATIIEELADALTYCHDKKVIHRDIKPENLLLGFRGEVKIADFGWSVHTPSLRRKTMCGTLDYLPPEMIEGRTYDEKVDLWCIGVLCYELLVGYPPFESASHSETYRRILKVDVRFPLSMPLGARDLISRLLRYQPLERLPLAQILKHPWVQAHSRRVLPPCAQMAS
Chain of UniProt O94806 (whole entry, looked up): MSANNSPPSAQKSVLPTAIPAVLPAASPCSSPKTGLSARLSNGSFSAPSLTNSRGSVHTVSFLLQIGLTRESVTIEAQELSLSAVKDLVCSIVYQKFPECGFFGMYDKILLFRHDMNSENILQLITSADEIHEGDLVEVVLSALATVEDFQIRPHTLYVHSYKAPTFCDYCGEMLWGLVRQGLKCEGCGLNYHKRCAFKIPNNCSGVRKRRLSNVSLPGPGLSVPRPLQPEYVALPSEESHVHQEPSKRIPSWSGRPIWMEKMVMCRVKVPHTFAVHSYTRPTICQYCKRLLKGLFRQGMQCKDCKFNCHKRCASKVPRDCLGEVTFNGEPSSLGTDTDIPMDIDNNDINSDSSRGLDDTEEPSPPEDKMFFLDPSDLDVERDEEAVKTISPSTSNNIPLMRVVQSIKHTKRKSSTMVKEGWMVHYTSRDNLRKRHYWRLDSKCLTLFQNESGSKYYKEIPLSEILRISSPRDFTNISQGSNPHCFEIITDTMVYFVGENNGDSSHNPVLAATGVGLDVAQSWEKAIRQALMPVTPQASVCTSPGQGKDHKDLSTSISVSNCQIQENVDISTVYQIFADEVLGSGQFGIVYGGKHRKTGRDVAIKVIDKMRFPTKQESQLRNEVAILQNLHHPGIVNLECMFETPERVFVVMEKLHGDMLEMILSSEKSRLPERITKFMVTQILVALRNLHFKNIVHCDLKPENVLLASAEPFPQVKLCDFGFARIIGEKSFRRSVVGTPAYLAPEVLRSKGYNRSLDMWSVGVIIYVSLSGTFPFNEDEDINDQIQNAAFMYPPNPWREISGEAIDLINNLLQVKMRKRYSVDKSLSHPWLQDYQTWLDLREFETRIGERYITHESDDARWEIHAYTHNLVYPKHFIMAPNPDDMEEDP
Chain of UniProt Q00537 (whole entry, looked up): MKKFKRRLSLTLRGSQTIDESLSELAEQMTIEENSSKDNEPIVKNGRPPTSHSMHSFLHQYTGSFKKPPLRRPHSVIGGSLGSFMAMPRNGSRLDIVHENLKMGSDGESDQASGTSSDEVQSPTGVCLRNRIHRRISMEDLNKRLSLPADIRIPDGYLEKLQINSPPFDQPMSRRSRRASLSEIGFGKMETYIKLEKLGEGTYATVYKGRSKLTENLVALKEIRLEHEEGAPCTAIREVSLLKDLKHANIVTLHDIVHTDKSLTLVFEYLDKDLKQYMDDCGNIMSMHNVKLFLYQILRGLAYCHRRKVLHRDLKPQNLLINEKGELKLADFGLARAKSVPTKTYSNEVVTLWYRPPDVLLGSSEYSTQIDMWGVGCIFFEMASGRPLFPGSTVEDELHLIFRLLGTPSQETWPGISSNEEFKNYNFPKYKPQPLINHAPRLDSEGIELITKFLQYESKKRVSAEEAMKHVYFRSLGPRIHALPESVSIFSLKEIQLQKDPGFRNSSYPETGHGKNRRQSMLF

Study 1 — technique: RNAcompete; molecule type: RNA; matrix: in vitro; tested at: 20 nM; setting: 7-mer, probes averaged, single round; baseline: mean of 7-mers; reading: higher = stronger binding; measurement: 7-mer Z-score
Target: PABPC1L2, full length, GST fusion (mouse, UniProt A0ABA7IW68)
Residues (chain): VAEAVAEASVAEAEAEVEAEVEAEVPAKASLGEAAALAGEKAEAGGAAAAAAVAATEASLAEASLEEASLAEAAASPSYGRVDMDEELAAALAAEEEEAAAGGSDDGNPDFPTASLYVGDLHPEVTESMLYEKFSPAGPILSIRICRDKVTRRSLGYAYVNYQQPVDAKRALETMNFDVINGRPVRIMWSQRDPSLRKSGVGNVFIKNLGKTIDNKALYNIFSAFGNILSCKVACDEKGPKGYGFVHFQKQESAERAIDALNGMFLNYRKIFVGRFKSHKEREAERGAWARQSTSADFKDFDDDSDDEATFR
AAUUGAG: 0.376
AACGACC: 0.122
CGCCUAA: -0.374
UUCCGGC: -0.383
UUGACAU: -0.184
GGAUUUC: -0.291
UUUAUAC: -0.202
CAACGGG: 0.253

Study 2 — effect on: enzyme activity; mode: inhibitor; tested at: 0.5 µM; baseline: control; measurement: remaining activity
Structure (SMILES): COc1cc2c(N3CCN(C(=O)Nc4ccc(OC(C)C)cc4)CC3)ncnc2cc1OCCCN1CCCCC1
Tyrosine-protein kinase Srms (SRMS, Homo sapiens, UniProt Q9H3Y6): 95.8%
Ribosomal protein S6 kinase alpha-6 (RPS6KA6, Homo sapiens, UniProt Q9UK32): 106%
Cyclin-dependent kinase 6, with cyclin D3 (CDK6, Homo sapiens, UniProt Q00534): 92.7%
Phosphorylase b kinase gamma catalytic chain, skeletal muscle/heart isoform (PHKG1, Homo sapiens, UniProt Q16816): 92.6%
Ephrin type-B receptor 1 (EPHB1, Homo sapiens, UniProt P54762): 96.6%
Serine/threonine-protein kinase WNK3 (WNK3, Homo sapiens, UniProt Q9BYP7): 102%
MAP kinase-activated protein kinase 3 (MAPKAPK3, Homo sapiens, UniProt Q16644): 103%
cAMP-dependent protein kinase catalytic subunit gamma (PRKACG, Homo sapiens, UniProt P22612): 108%
Cyclin-dependent kinase 4, with cyclin D3 (CDK4, Homo sapiens, UniProt P11802): 104%

Study 3 — tested at: 1 µM; measurement: remaining binding
SMILES: NS(=O)(=O)c1cc(NC(=O)C2(c3ccccc3Cl)CC2)ccc1Oc1cccc(Cl)c1
Serine/threonine-protein kinase WNK3 (WNK3, Homo sapiens, UniProt Q9BYP7); cell-free assay, competition with immobilised ligand: 78%
Phosphatidylinositol 4,5-bisphosphate 3-kinase catalytic subunit alpha isoform (PIK3CA, Homo sapiens, UniProt P42336, Q546K); cell-free assay, competition with immobilised ligand: 84%
Casein kinase II subunit alpha' (CSNK2A2, Homo sapiens, UniProt P19784); cell-free assay, competition with immobilised ligand: 100%
AP2-associated protein kinase 1 (AAK1, Homo sapiens, UniProt Q2M2I8); binding: 100%
Cyclin-dependent kinase 17 (CDK17, Homo sapiens, UniProt Q00537); cell-free assay, competition with immobilised ligand: 88%
Serine/threonine-protein kinase 10 (STK10, Homo sapiens, UniProt O94804); cell-free assay, competition with immobilised ligand: 69%
Aurora kinase C (AURKC, Homo sapiens, UniProt Q9UQB9); cell-free assay, competition with immobilised ligand: 63%
Serine/threonine-protein kinase Nek3 (NEK3, Homo sapiens, UniProt P51956); cell-free assay, competition with immobilised ligand: 95%
Serine/threonine-protein kinase D3 (PRKD3, Homo sapiens, UniProt O94806); cell-free assay, competition with immobilised ligand: 85%
Serine/threonine-protein kinase TAO3 (TAOK3, Homo sapiens, UniProt Q9H2K8); cell-free assay, competition with immobilised ligand: 100%
Non-receptor tyrosine-protein kinase TYK2, JH1 (TYK2, Homo sapiens, UniProt P29597); cell-free assay, competition with immobilised ligand: 100%
Bone morphogenetic protein receptor type-1B (BMPR1B, Homo sapiens, UniProt O00238); cell-free assay, competition with immobilised ligand: 81%
Tyrosine-protein kinase TXK (TXK, Homo sapiens, UniProt P42681); binding, competition with immobilised ligand: 90%
Epidermal growth factor receptor (EGFR, Homo sapiens, UniProt P00533, del747-750/T751S); cell-free assay, competition with immobilised ligand: 75%
Cyclin-dependent kinase 13 (CDK13, Homo sapiens, UniProt Q14004); cell-free assay, competition with immobilised ligand: 100%
Myosin light chain kinase family member 4 (MYLK4, Homo sapiens, UniProt Q86YV6); cell-free assay, competition with immobilised ligand: 94%
MAP/microtubule affinity-regulating kinase 4 (MARK4, Homo sapiens, UniProt Q96L34); cell-free assay, competition with immobilised ligand: 82%

Further values, each from its own experiment
COc1ccc(-c2c(Nc3ccccn3)[nH]c3c(C4=CCCCC4)c(-c4ccccc4)nn3c2=O)cc1
fluctuation over dosing interval (human, plasma; oral, 200 mg twice daily): 40.3% and 47.1% and 26%

For quick reference, copied from above (study 3):
Serine/threonine-protein kinase 10 (STK10, Homo sapiens, UniProt O94804); cell-free assay, competition with immobilised ligand: 69%
Cyclin-dependent kinase 13 (CDK13, Homo sapiens, UniProt Q14004); cell-free assay, competition with immobilised ligand: 100%
Aurora kinase C (AURKC, Homo sapiens, UniProt Q9UQB9); cell-free assay, competition with immobilised ligand: 63%
Epidermal growth factor receptor (EGFR, Homo sapiens, UniProt P00533, del747-750/T751S); cell-free assay, competition with immobilised ligand: 75%
